# Measured values pooled from the literature.
# Numbered parts are unrelated; each lists some results of a single study.

# Sample 1 — method: RNA Bind-n-Seq; molecule type: RNA; medium: in vitro; tested at: 365 nM; baseline: no-protein control; reading: higher = stronger binding
# Target: RNA binding protein fox-1 homolog 2, RRM domain, GST-SBP tag (RBFOX2, Homo sapiens, UniProt O43251-10, residues 100-194)
# Setting: natural RNA segment, single round, ends assumed
# Construct (chain): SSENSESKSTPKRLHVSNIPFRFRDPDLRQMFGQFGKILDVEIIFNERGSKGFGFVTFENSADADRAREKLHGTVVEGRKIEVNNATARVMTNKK
Strand,RBNS enrichment (R)
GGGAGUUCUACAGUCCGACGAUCCUUUAACUGGACGGACGUUGUUAGGGUGAGAAAUAAAAGGACAGCCUCCAAAGGUUGAGAGCAAGAAUUGUUUUUUUCUUGGAUAUCAAAGGGAUUAUCACAGCGCAAUCUGGAAUUCUCGGGUGCCAA,0.467
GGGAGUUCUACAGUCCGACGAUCAAUAUAGUUUUUUUAGUAUAAUUCCACUGCACUUAACACUAAUGUUCAUGUUGGUAUAGAAAUGUCUUUUAAAUCCUAUUGUUGAGCAAGAUCUGCUCUCUGUCUAUGGUUGGAAUUCUCGGGUGCCAA,0.278
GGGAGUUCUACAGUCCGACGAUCCGCGUGUGUGGACAGUCUUAUCUUCCAGCAUGAUAGGAUUUGACCAUUUUGGUGUAAACAUUUGUGUUUUAUAAGAUUUACCUUGUUUUUAUUUUUCUACUUUGAAUUGUUGGAAUUCUCGGGUGCCAA,4.56
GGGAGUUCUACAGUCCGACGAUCUUUAGGAAUAAAUGUCAGAUUUUAAAAGUCUUCUAUUUCCCAAUGAUCUCUGAAGUUUAGUAUUUUUGCACUAUGACAAUUGCUAAGACUGGGAUUUUAAGCUAGGAUAUUGGAAUUCUCGGGUGCCAA,0.413
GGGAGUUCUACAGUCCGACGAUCGUAUGUCAAUAAAGCAAAUACUUACUGUUUUGUUUCUAUUAAUGAUUCCCAAACCUUGUUGCAAGUUUUUGCAUUGGCAUCUUUGGAUUUCAGUCUUGAUGUUUGUUCUAUGGAAUUCUCGGGUGCCAA,1.21
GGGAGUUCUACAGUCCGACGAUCCUUUUGGCGUGCAUAAGGAUCACUGUGUACACAUUGGCCAAGUGCUUCUGUAGAUAAUGUCUGUGGAGUAAAUAUUUGACAGGCCAGAACUUGAGUCUUUUGCCUUGCCUUGGAAUUCUCGGGUGCCAA,0.988
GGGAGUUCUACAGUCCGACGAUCGCUCAUAAAUCAAAGCUCAUCAGUUCCCAUAAAUGCAGUUGUCAAAGAAAAGAUUUGGUUGCCAUAGUCAUAAGCAAUGAUACAUGAAACCAAUGAAAGACAGUACAUGUUGGAAUUCUCGGGUGCCAA,0.265
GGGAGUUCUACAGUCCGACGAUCCAUGUGAUGUGAGACAGAAACCUAAACAUGGUACUUGAUUCUAAACCUGUGCCAGUCUAUAGCCUCUGCCUCCCCAAGCAGAGCUCAAGCCAAACGCUUCUGUCCUCUUUUGGAAUUCUCGGGUGCCAA,0.257

# Sample 2 — method: Sort-seq; refers to: YFP reporter; medium: E. coli; setting: PhoQ-PhoP variant library; added: 10 µM Mg2+; baseline: high Mg2+ state; reading: higher = stronger signaling
# Molecule: PhoQ, residues 284 288 289 292 302 303 GANMMA
target,fold induction
"PhoP, residues 12 14 15 18 19 TQCLL (Escherichia coli, UniProt P23836)",1.36
"PhoP, residues 12 14 15 18 19 VHTVL (Escherichia coli, UniProt P23836)",8.99
"PhoP, residues 12 14 15 18 19 ICWRQ (Escherichia coli, UniProt P23836)",0.977

# Sample 3 — method: protein-binding microarray; molecule type: double-stranded DNA, one strand shown; medium: in vitro; tested at: 250 nM; setting: 60-bp whole probe; added: salmon DNA 0.4 mg/ml; baseline: random background probes; reading: higher = stronger binding; constant ends, left off below: GCCTAGCAC … GTCTTGATTCGCTTGACGCTGCTG
# Target: Interferon regulatory factor 7, full length, phosphomimetic (IRF7, Homo sapiens, UniProt Q92985, residues 1-503, S101K/S471D/S472D/S475D/S476D/S477D/S483D/S484D/S487D)
# Residues (chain): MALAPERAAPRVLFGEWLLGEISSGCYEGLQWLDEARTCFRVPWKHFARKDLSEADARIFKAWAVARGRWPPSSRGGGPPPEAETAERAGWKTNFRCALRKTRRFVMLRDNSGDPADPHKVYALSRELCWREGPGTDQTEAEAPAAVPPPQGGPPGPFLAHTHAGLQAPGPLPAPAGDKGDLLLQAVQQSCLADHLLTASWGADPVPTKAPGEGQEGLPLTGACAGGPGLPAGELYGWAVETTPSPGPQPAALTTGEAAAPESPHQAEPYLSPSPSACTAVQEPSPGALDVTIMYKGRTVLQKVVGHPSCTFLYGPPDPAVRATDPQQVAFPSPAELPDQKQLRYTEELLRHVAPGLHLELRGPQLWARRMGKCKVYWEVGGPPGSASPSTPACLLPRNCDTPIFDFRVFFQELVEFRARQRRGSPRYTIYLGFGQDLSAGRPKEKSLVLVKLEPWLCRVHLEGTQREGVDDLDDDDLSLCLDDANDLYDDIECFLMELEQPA
Strand,log fluorescence [z-score]
TCACATGTTTTTTTCTAACTGTGCTAG,0.919
TTAGGACTACTACTGCTTTAGTGCTAG,-0.117
GACGAACTGAGCCTGGAGACGTGCTAG,-0.25
TTAGGTTTCGGTTTCGGTTGGTGCTAG,15
CAAGTTTGCCTCCTTCAGTCAGTGCTA,0.149
GACTGTTTCGACTTTCGGGACGTGCTA,5.37
TTAGCACTGGGGACTGGATTAGTGCTA,-0.551
TTAAATTTCAGTCTCGATTAGTGCTAG,2.01
GACGATACCAGTCTCGAGACGTGCTAG,0.709
AGGGCAGGGAGGGGGACAGCGTGCTAG,2.58
AGCCATCTGCAGCAGGCCCCGTGCTAG,-0.709
CTGCCTAACATGCTTCGAGATGTGCTA,0.533
GACGGACTAGACTTTCGGGACGTGCTA,-0.129
GACGATATCGGGACTTGAGACGTGCTA,-0.163

# Sample 4 — method: competition protein-binding microarray; molecule type: double-stranded DNA, one strand shown; medium: in vitro; tested at: 2 µM; added: Cbf1 competitor, 0.05 µM; reading: higher = stronger binding
# Target: Phosphate system positive regulatory protein PHO4, full length, GST-tagged (PHO4, Saccharomyces cerevisiae, UniProt P07270, residues 1-312)
# UniProt P07270, sequence (whole entry, looked up): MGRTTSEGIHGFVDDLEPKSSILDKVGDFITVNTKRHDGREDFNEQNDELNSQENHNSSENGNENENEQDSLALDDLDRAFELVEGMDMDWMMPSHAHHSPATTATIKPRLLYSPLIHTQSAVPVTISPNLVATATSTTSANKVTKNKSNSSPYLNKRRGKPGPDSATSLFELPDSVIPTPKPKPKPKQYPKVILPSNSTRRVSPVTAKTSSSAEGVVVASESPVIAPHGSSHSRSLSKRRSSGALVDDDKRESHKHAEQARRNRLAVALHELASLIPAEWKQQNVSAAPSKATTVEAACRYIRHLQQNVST
# Setting: whole 60-bp probe, lowest competitor level
Strand,fluorescence intensity [a.u.]
AAAGCGGTAATTTGTACGGTGGGTGCAGATATCTATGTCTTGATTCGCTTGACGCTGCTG,4160
TAATGGTATAGGCGTCACCTGCCGAAACAAAAATCGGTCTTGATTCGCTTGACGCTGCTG,4050
GCTTTCGATTTTCCTCACGTGACGGCGTTTCTTGGCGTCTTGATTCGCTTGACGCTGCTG,12900
CTTCTGTAAATTTGTCACGGCACTTGACGCGCCCCGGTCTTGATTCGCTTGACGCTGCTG,4010
TTGCTGTTTCTAAGAAGCGTGGGACAACGCAATGAAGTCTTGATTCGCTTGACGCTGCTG,8600
CTTCTGTAAATTTGTCCCGTGGGTGGACGCGCCCCGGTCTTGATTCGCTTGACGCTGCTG,9700
AAAATATTCATTTTGCACGTTTCAATGCTTGACAGAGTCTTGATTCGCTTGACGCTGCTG,13200
CAGATCTTATAAGGGTTCGTGATGGTCCTGAATCGAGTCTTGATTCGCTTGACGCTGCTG,4340
CGTTAAGTAGCCCATCACGCAGCAAGACCGCGGCCCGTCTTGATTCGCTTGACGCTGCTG,6040
TGGAAAGCTTGATGACATGTGATAGCACACCATGCTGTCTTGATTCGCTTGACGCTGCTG,9710

# For quick reference, copied from above (sample 3):
Strand,log fluorescence [z-score]
TCACATGTTTTTTTCTAACTGTGCTAG,0.919
TTAGGACTACTACTGCTTTAGTGCTAG,-0.117
GACGAACTGAGCCTGGAGACGTGCTAG,-0.25
